Experimental data of several laboratories.
Compare with care: the assays were run in different laboratories. “And” joins repeats or separate records; there may be more than shown. ± gives the spread as reported.
PROK: Proteinase K (PROK, Engyodontium album, UniProt P06873)
UniProt P06873, sequence (whole entry, looked up): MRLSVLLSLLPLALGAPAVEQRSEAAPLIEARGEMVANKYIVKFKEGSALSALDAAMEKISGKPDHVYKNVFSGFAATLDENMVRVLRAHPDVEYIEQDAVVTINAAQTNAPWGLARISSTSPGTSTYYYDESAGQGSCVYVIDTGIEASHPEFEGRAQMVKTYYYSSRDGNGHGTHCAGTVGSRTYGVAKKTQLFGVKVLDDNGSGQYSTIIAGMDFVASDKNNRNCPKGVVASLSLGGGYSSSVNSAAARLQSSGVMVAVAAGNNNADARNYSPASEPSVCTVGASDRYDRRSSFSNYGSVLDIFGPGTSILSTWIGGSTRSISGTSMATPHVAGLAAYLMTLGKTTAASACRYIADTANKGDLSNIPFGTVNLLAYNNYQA
CYP1A2: Cytochrome P450 1A2 (CYP1A2, Homo sapiens, UniProt P05177)
UniProt P05177, sequence (whole entry, looked up): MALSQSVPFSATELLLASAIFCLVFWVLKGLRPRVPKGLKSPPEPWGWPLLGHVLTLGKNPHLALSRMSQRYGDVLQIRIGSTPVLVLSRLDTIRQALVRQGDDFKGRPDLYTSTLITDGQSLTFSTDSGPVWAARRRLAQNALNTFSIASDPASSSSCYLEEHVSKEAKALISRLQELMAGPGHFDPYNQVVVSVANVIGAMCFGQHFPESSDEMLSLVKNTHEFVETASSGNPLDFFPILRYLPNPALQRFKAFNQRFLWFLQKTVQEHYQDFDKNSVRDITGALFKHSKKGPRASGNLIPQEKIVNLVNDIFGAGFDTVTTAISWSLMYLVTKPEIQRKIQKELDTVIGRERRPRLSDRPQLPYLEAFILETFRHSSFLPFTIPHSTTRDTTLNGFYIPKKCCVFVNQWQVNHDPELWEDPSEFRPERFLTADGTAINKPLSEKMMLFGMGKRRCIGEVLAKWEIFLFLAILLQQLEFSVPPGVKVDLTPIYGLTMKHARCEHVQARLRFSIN
UniProt P08684, sequence (whole entry, unmodified, looked up): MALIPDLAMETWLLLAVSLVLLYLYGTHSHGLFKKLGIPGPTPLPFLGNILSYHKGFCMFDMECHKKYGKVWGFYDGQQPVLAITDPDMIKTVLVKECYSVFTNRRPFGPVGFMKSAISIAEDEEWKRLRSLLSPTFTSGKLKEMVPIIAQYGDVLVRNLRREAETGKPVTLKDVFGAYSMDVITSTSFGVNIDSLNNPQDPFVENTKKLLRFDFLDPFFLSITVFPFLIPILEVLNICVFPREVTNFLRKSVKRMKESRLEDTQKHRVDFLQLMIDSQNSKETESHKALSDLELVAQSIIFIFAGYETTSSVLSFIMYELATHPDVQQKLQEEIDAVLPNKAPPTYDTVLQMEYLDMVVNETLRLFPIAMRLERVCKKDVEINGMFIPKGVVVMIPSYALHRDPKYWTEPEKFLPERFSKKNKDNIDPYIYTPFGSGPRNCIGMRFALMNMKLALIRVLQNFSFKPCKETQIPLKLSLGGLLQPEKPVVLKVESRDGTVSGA
UniProt P43235, sequence (whole entry, looked up): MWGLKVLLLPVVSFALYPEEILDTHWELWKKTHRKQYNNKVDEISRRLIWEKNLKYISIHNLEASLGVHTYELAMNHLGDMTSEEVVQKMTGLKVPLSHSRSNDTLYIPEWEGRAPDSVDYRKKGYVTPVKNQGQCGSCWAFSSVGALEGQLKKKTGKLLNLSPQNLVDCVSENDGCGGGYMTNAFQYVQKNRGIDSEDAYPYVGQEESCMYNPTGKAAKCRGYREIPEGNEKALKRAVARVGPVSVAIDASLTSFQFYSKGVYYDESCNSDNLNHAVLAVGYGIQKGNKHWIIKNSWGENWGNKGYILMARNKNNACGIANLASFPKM
UniProt P21447, sequence (whole entry, looked up): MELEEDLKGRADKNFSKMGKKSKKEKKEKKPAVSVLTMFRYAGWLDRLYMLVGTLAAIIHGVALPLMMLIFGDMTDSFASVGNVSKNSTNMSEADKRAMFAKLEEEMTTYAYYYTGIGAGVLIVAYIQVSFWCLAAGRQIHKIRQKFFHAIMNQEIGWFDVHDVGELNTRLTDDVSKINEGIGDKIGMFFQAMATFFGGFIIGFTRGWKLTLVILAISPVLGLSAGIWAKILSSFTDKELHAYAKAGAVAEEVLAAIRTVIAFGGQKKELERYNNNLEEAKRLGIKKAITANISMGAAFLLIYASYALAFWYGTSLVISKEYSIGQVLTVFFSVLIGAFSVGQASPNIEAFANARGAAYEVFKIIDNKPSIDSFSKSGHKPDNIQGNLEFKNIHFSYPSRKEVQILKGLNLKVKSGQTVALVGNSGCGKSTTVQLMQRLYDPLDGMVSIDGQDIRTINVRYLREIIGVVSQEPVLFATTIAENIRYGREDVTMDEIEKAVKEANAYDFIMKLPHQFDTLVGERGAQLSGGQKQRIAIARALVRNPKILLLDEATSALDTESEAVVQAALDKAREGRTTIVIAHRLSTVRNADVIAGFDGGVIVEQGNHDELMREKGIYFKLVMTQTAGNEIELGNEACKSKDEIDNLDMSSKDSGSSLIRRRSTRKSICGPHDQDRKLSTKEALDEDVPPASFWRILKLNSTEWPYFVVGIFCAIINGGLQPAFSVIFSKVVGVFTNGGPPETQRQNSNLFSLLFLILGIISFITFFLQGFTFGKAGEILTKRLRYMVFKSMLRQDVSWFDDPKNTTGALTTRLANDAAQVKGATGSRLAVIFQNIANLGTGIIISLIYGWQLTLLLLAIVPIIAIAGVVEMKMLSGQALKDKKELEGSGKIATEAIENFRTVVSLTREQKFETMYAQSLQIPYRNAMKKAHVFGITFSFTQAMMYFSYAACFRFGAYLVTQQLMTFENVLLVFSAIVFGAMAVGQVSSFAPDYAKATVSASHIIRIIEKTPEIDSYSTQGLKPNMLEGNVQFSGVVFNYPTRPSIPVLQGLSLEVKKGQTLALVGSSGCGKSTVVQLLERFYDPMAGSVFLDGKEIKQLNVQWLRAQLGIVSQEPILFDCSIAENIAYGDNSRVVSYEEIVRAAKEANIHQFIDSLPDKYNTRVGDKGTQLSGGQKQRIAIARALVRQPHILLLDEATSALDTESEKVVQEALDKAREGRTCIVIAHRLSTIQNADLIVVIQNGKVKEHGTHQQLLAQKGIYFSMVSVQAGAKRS
UniProt P00761, sequence (whole entry, looked up): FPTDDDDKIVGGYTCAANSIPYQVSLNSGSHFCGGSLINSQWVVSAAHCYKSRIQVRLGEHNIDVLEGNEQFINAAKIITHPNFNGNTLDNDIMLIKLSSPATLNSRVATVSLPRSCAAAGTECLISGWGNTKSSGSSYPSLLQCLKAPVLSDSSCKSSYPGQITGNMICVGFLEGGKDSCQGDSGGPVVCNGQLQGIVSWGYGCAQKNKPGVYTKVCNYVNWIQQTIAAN
UniProt P34913, sequence (whole entry, looked up): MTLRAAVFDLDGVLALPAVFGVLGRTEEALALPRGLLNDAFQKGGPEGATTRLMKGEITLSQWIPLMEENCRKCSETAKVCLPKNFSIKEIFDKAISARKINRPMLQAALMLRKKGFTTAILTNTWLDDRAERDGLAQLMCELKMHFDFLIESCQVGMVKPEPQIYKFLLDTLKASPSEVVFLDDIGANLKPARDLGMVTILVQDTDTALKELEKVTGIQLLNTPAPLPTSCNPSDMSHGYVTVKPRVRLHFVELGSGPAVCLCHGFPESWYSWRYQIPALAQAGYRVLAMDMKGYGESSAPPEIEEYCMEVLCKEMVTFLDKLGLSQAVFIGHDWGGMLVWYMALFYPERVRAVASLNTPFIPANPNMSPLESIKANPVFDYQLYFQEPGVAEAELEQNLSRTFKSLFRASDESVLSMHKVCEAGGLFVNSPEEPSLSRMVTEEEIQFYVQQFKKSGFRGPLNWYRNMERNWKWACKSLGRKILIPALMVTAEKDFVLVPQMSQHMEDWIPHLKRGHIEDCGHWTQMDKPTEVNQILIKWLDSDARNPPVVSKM
UniProt P05181, sequence (whole entry, looked up): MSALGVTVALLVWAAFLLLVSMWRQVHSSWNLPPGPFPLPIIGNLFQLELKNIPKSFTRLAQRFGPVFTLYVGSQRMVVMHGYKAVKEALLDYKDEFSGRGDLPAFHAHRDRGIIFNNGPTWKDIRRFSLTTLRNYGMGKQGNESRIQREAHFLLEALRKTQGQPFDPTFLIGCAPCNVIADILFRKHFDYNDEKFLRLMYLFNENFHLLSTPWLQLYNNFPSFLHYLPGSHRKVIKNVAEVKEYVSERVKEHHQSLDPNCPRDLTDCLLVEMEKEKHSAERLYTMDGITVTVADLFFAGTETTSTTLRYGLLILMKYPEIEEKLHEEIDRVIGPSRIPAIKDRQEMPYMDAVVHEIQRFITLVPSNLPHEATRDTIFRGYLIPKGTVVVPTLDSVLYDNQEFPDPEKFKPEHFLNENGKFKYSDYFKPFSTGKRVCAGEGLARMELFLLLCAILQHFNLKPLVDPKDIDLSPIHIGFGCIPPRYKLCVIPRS
UniProt O00519, sequence (whole entry, looked up): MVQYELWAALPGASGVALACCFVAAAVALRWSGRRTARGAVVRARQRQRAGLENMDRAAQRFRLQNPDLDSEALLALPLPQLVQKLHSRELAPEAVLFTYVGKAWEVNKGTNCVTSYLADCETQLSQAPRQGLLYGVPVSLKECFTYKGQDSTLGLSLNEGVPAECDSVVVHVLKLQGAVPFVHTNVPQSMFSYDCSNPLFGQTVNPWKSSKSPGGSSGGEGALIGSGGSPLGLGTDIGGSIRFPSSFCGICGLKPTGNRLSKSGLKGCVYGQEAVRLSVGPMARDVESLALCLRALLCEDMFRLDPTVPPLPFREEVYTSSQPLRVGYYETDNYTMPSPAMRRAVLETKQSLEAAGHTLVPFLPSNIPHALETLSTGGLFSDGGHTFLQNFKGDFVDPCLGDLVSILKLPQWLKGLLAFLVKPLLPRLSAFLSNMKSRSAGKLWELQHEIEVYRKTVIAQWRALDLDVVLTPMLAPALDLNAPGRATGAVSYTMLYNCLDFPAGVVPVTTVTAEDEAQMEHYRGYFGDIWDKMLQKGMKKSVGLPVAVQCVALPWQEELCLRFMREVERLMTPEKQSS

| SMILES | target or system | assay | test system | setting | scale | endpoint | result |
| --- | --- | --- | --- | --- | --- | --- | --- |
| CC(C)C[C@H](NC(=O)CNC(=O)[C@H](CC(C)C)NC(=O)[C@@H]1CCCN1C(=O)CNC(=O)[C@H](Cc1ccccc1)NC(=O)OCC1c2ccccc2-c2ccccc21)C(=O)N[C@@H](CCCNC(=N)N)C(=O)N[C@@H](CO)C(=O)N[C@@H](CCCCN)C(=O)O | MMP-9 | substrate, HPLC |  | 500 µM, 72 h, pH 7.5, 37 °C, added: 10 U MMP-9 |  | remaining substrate | 10% |
| COc1ccc2cc(NC(=O)c3cc(-c4ccncc4)nc4ccccc34)ccc2c1 | Cytochrome P450 3A4 (CYP3A4, Homo sapiens, UniProt P08684, S18F) | binding, surface plasmon resonance |  | 10 °C |  | koff fast phase | 0.03 s⁻¹ and 0.034 s⁻¹ |
| O=C(O)[C@@H]1C[C@@H](O)CN1C(=O)[C@@H]1CCCN1 | iron(III) ion | complex formation, from log β | aqueous 0.15 M NaCl | 37 °C, MAH−1 complex species |  | −ΔG | 15.9 kcal/mol |
| [64Cu+2].c1cnc(CNCc2ccc(CN3CCCN4CCNCCCN(CC4)CC3)cc2)nc1 | CXCR4 |  | NOD/SCID mouse, U87 and U87-stb-CXCR4 xenografts, lungs | iv, 120 min, ex vivo |  | tissue uptake | 7.12 ± 0.89 %ID/g |
| CC(=O)N[C@@H](CCCCN)C(=O)N[C@@H](CO)C(=O)N[C@@H](CC(C)C)C(=O)N[C@@H](CO)C(=O)N[C@@H](CC(C)C)C(=O)N[C@@H](CO)C(=O)N[C@@H](CC(C)C)C(=O)N[C@@H](CCCNC(=N)N)C(=O)NCC(=O)N[C@@H](CO)C(=O)N[C@@H](CC(C)C)C(=O)N[C@@H](CO)C(=O)N[C@@H](CC(C)C)C(=O)N[C@@H](CO)C(=O)N[C@@H](CC(C)C)C(=O)N[C@@H](CCCCN)C(N)=O | Trypsin (Sus scrofa, UniProt P00761) |  |  | 10 mg/mL, 2 weeks, 37 °C, added: Trypsin 0.05% with EDTA |  | gel weight loss | 75% |
| O=C(Nc1ccc(OC(F)(F)F)cc1)N1CCC(Cc2cccc(Oc3ccc(C(F)(F)F)cn3)c2)CC1 | EPHX2 (Homo sapiens, UniProt P34913) | FRET displacement |  |  |  | dissociation half-life | 0.197 h |
| CC(C)C[C@H](NC(=O)[C@H](CC(N)=O)NC(=O)[C@H](CCCNC(=N)N)NC(=O)[C@@H](CC(C)C)NC(=O)[C@H](Cc1ccc(-c2ccccc2)cc1)NC(=O)[C@H](CC(=O)O)NC(=O)[C@H](CCCCN)NC(=O)[C@@H](CC(C)C)NC(=O)[C@H](CCCNC(=N)N)NC(=O)[C@H](CCC(N)=O)NC(=O)[C@@H](NC(=O)[C@@H](CC(C)C)NC(=O)[C@H](CCCNC(=N)N)NC(=O)[C@H](CCCCN)NC(=O)[C@H](Cc1ccc(-c2ccccc2)cc1)NC(=O)CN)C(C)C)C(=O)N[C@H](C(N)=O)C(C)C | PROK | substrate, tricine SDS-PAGE |  | pH 8, 37 °C, added: peptide:protease 40:1 |  | stability time | ≥ 24 h |
| C=CC(=O)Nc1cc(Nc2nccc(-c3cn(C)c4ccccc34)n2)c(OCC(F)(F)F)nc1N(C)CCN(C)C | Cytochrome P450 3A4 (CYP3A4, Homo sapiens, UniProt P08684) | enzyme activity, inhibitor | human, liver microsomes | 10 µM, testosterone probe |  | activity vs control | 91.3% |
| Cc1ccc(OCC(=O)N(Cc2cccs2)c2ccn[nH]2)cc1 | CYP1A2 | enzyme activity, inhibitor, fluorescence | Sf9 | 10 µM |  | inhibition | 59% |
| NCCCC[C@H](NC(=O)[C@H](Cc1ccc(O)cc1)NC(=O)[C@H](CCCCN)NC(=O)[C@H](Cc1c[nH]c2ccccc12)NC(=O)[C@H](Cc1ccccc1)NC(=O)[C@H](Cc1ccccc1)NC(=O)Cc1ccc(-c2ccccc2)cc1)C(=O)NCC(=O)N[C@@H](Cc1c[nH]cn1)C(=O)N1CCC[C@H]1C(=O)NCC(=O)NCC(=O)N1CCC[C@H]1C(=O)N[C@@H](CCC(N)=O)C(=O)N[C@@H](CC(=O)O)C(=O)N[C@@H](CC(=O)O)C(=O)N[C@@H](CC(=O)O)C(=O)N[C@@H](CC(=O)O)C(=O)N[C@@H](CC(=O)O)C(=O)N[C@@H](CC(=O)O)C(=O)O | Cathepsin K (CTSK, Homo sapiens, UniProt P43235) | Zetasizer | MES buffer | 64 µM, pH 5.5, without enzyme, before cleavage |  | zeta potential | -22.3 mV |
| CC(C)C[C@H](NC(=O)[C@H](CO)NC(=O)[C@H](CC(C)C)NC(=O)[C@@H]1CCCN1C(=O)CNC(=O)[C@H](Cc1ccccc1)NC(=O)[C@H](Cc1ccccc1)NC(=O)OCC1c2ccccc2-c2ccccc21)C(=O)N[C@@H](CCCNC(=N)N)C(=O)N[C@@H](CO)C(=O)N[C@@H](CCCCN)C(=O)O | MMP-9 | substrate, HPLC |  | 500 µM, 72 h, pH 7.5, 37 °C, added: 10 U MMP-9 |  | remaining substrate | 91% |
| O=C(O)C(O)Cc1ccc(O)c(O)c1 (stereo not shown) | cytochrome P450, rat | substrate | rat liver microsomes | added: NADPH |  | oxidation | not detected |
| CCCSC(=S)N1CCN(C(=O)/C=C/c2coc3ccccc3c2=O)CC1 | tomato spotted wilt virus | viral infection, half-leaf method | Nicotiana glutinosa | 500 µg/mL |  | curative effect | 53.4 ± 9% |
| O=C(O)c1cc(Br)c(O)c(Br)c1 | Cytochrome P450 2E1 (CYP2E1, Homo sapiens, UniProt P05181) | p-nitrophenol hydroxylation, competitive inhibitor, Cheng-Prusoff from IC50 |  | added: p-nitrophenol |  | Ki | 100 nM |
| C[C@]12CC[C@@H]3c4ccc(OCC(=O)N[C@@H](CCCCNC(=O)CN5CCN(CC(=O)[O-])CCN(CC(=O)[O-])CCN(CC(=O)[O-])CC5)C(=O)O)cc4CC[C@H]3[C@@H]1CCC2=O.[68Ga+3] | estrogen receptor |  | nude mice, MCF7 xenograft, uterus | dose not given, 2.5 h post-injection, no blocking dose |  | radioactivity uptake | 1.3 ± 0.22 %ID/g |
| CCC(=O)N(C)c1ccc(Cl)c(Cl)c1 | CHO-WBL |  |  | 0.032 mg/mL, 3 h, without S9 activation |  | cells with multiple aberrations | 0% |
| COc1cc(-c2nc3ccccc3s2)cc(CN(Cc2ccccn2)Cc2ccccn2)c1O | Zn2+ |  |  | 50 µM, pH 7.4, metal to ligand 1:1 |  | pZn | 8 |
| CCN(CC)CCSC(=S)N1CCN(C(=O)/C=C/c2coc3cc(OC)ccc3c2=O)CC1 | tomato spotted wilt virus | viral infection, half-leaf method | Nicotiana glutinosa | 500 µg/mL |  | inactivation effect | 57.2 ± 4.6% |
| COc1cc(-c2nc3ccccc3s2)cc(CN(C)Cc2ccccn2)c1O | Zn2+ |  |  | 50 µM, pH 7.4, metal to ligand 1:1 |  | pZn | 7.3 |
| CCCC[C@H](NC(C)=O)C(=O)N[C@@H](CO)C(=O)N[C@H](C(=O)N1CCC[C@H]1C(=O)N[C@]1(C)CCCCCCC=CCCC[C@@](C)(C(=O)N[C@@H](Cc2ccccc2)C(=O)N[C@@H](CCCCN)C(=O)N[C@@H](CCCNC(=N)N)C(=O)N[C@@H](CC(C)C)C(=O)N[C@@H](CCC(N)=O)C(N)=O)NC(=O)[C@H](CCCNC(=N)N)NC(=O)[C@H](CCCC)NC(=O)[C@H](CC(C)C)NC(=O)[C@H](CCCNC(=N)N)NC(=O)[C@H](CCCNC(=N)N)NC(=O)[C@H](CCCNC(=N)N)NC1=O)[C@@H](C)O | PROK | substrate, LC-MS |  | 25 µM, pH 7.4 |  | half-life | 6.5 h |
| Cc1nc2ccc(S(=O)(=O)n3nc(SCc4ccc(Cl)cc4)nc3N)cc2s1 | Lysophospholipase-like protein 1 (Mus musculus, UniProt Q3UFF7) | gel-based ABPP | C57BL/6J mouse, male, liver | intraperitoneal, 100 mg/kg, 25 min, added: LYPLAL1 alkyne probe 5 mg/kg | relative to: vehicle | activity-based probe labelling | 2 fold |
| N=C(N)NCCC[C@@H]1NC(=O)[C@H](Cc2c[nH]c3ccccc23)NC(=O)[C@@H](CC2CCCCC2)NC(=O)[C@@H]2CCCN2C(=O)[C@@H](NC(=O)CCc2ccccc2)CCCNC1=O |  |  | C57BL/6J mice, spinal cord | subcutaneous, 1 mg/kg |  | Cmax | 225 ng/g |
| Brc1ccccc1-c1nnc(CSc2nnnn2-c2ccccc2)o1 | CYP1A2 | enzyme activity, inhibitor, fluorescence | insect cell microsomes | 10 µM |  | inhibition | 46% |
| O=C(Nc1ccccc1)c1ccc(Nc2nnc(-c3ccc(O)cc3)c3ccccc23)cc1 | FAAH (Homo sapiens, UniProt O00519) | substrate |  | concentration not given, 24 h, 37 °C |  | hydrolysis | ~5% |
| CC(C)C[C@H](NC(=O)[C@@H]1CCCN1)C(=O)N[C@@H](CO)C(=O)N[C@@H](CC(C)C)C(=O)N[C@@H](CCCNC(=N)N)C(=O)N[C@@H](CO)C(=O)N[C@@H](CCCCN)C(=O)O | MMP-9 | substrate, HPLC |  | 500 µM, 72 h, pH 7.5, 37 °C, added: 10 U MMP-9 |  | remaining substrate | 5% |
| [64Cu+2].c1ccc(CNCc2ccc(CN3CCCN4CCNCCCN(CC4)CC3)cc2)nc1 | CXCR4 |  | NOD/SCID mouse, U87 and U87-stb-CXCR4 xenografts, lungs | iv, 240 min, ex vivo |  | tissue uptake | 8.09 ± 1.59 %ID/g |
| CC(=O)N1CCC[C@H]1C(=O)N[C@@H](CC(C)C)C(=O)N[C@@H](CO)C(=O)N[C@@H](CC(C)C)C(=O)N[C@@H](CCCNC(=N)N)C(=O)N[C@@H](CO)C(=O)N[C@@H](CCCCN)C(=O)O | MMP-9 | substrate, HPLC |  | 500 µM, 72 h, pH 7.5, 37 °C, added: 10 U MMP-9 |  | remaining substrate | < 10% |
| Cn1cnc(C(=O)N(Cc2ccc(F)c(OC3CCCC3)c2)C2CC3CN([11CH3])CC3C2)c1 (stereo not shown) | Abcb1a (Mus musculus, UniProt P21447) |  | mouse | added: cyclosporin A 50 mg/kg i.v. | relative to: no cyclosporin A | brain uptake increase | 12 fold |

Some of these lines once more:
| SMILES | target or system | assay | test system | setting | scale | endpoint | result |
| --- | --- | --- | --- | --- | --- | --- | --- |
| [64Cu+2].c1cnc(CNCc2ccc(CN3CCCN4CCNCCCN(CC4)CC3)cc2)nc1 | CXCR4 |  | NOD/SCID mouse, U87 and U87-stb-CXCR4 xenografts, lungs | iv, 120 min, ex vivo |  | tissue uptake | 7.12 ± 0.89 %ID/g |
| CC(=O)N[C@@H](CCCCN)C(=O)N[C@@H](CO)C(=O)N[C@@H](CC(C)C)C(=O)N[C@@H](CO)C(=O)N[C@@H](CC(C)C)C(=O)N[C@@H](CO)C(=O)N[C@@H](CC(C)C)C(=O)N[C@@H](CCCNC(=N)N)C(=O)NCC(=O)N[C@@H](CO)C(=O)N[C@@H](CC(C)C)C(=O)N[C@@H](CO)C(=O)N[C@@H](CC(C)C)C(=O)N[C@@H](CO)C(=O)N[C@@H](CC(C)C)C(=O)N[C@@H](CCCCN)C(N)=O | Trypsin (Sus scrofa, UniProt P00761) |  |  | 10 mg/mL, 2 weeks, 37 °C, added: Trypsin 0.05% with EDTA |  | gel weight loss | 75% |
| O=C(Nc1ccc(OC(F)(F)F)cc1)N1CCC(Cc2cccc(Oc3ccc(C(F)(F)F)cn3)c2)CC1 | EPHX2 (Homo sapiens, UniProt P34913) | FRET displacement |  |  |  | dissociation half-life | 0.197 h |
